Experimental data gathered from unrelated publications.
Protocols differ between the studies behind these lines.

SMILES	tested on	assay	test system	conditions	how to read	endpoint	result
Oc1ncnc2[nH]ncc12	Toxoplasma gondii	parasite growth, luciferase reporter	HFF, tachyzoite	72 h		EC50	30 µM
Cn1cc(Nc2nccc(-c3ccc4c(c3)CN(C3COC3)CC[C@H]4NC(=O)c3cn(C(C)(C)C)nn3)n2)cn1		refers to: PPAR signalling	mouse splenic B cells, mouse	30 mg/kg, IgD-activated B cells in vivo	baseline: vehicle, direction not given	pathway activation z-score	1.39
O=C(O)CNC(=O)Cc1ccccc1			ventricular cardiomyocytes, C57BL/6 mouse	dose not given, 0.388 s		sarcomere length	1.72 µm
O=C1c2ccccc2C(=O)c2c(NCCc3ccc(O)cc3)ccc(NCCc3ccc(O)cc3)c21	Toxoplasma gondii	bradyzoite growth		pH 8.2, alkaline-induced bradyzoites		EC50	2.88 µM
N#Cc1ccc2c(-c3ccncc3)c(-c3ccc(F)cc3)nn2c1		kinase binding, competitor, MIB/MS competition, refers to: SCH9	Candida albicans cell lysate	10 µM	baseline: DMSO	log2 fold change	-0.0863
C[C@H]1C[C@H]2CSC(N)=N[C@@]2(c2nc(NC(=O)c3ccc(OC(F)F)cn3)cs2)CO1		refers to: Aβx-40	healthy adults, plasma	160 mg single dose, 24 h post-dose	baseline: placebo	percent change from baseline	-60.8%
Cc1n[nH]c2ccc(-c3cc(OC[C@@H](N)Cc4ccccc4)cnc3-c3ccoc3)cc12		kinase binding, competitor, MIB/MS competition, refers to: CAK1	Candida albicans cell lysate	10 µM	baseline: DMSO	log2 fold change	-2.18
CC(C)NCC(O)c1ccc(O)c(O)c1 (centres unmarked)			ventricular cardiomyocytes, C57BL/6 mouse	dose not given, 0.36 s		sarcomere length	1.72 µm
C[C@H](Oc1ccc(Br)cc1-c1ccon1)C(=O)O		MVRC latency	human, tibialis anterior muscle	200 mg, SAD		difference from placebo	-0.166 ms
OC(CCN1CCCCC1)(c1ccccc1)C1CC2C=CC1C2 (centres unmarked)		resting-state EEG	healthy elderly humans	oral, 4 mg, eyes closed, LS mean	baseline: baseline	change in EEG Alpha2-power Pz-O2	31.9%
NC(=O)c1cnc2[nH]ccc2c1N[C@@H]1[C@@H]2CC3C[C@H]1C[C@@](O)(C3)C2		CD4+ memory T cells, flow cytometry	Japanese humans, peripheral blood	60 mg single dose	baseline: baseline	percent change	0.37%

Excerpt of the above:
SMILES	tested on	assay	test system	conditions	how to read	endpoint	result
C[C@H]1C[C@H]2CSC(N)=N[C@@]2(c2nc(NC(=O)c3ccc(OC(F)F)cn3)cs2)CO1		refers to: Aβx-40	healthy adults, plasma	160 mg single dose, 24 h post-dose	baseline: placebo	percent change from baseline	-60.8%
C[C@H](Oc1ccc(Br)cc1-c1ccon1)C(=O)O		MVRC latency	human, tibialis anterior muscle	200 mg, SAD		difference from placebo	-0.166 ms
